Published values pooled from the literature.
Compare with care: the assays were run in different laboratories. ± gives the spread as reported.
Organism: Staphylococcus aureus

SMILES	system	conditions	inhibition zone diameter
Cn1c(C23CC4CC(CC(C4)C2)C3)nn(CCN2CCCCC2)c1=S	IFO 3060	200 µg/disc, 24 h, 37 °C	23 mm
CCOC(=O)C1=C(C)NC2=C(C(=O)CC(C)(C)C2)C1c1ccc(OCC(=O)NN=Cc2cc(Br)c(O)c(Br)c2)cc1OCC(=O)NN=Cc1cc(Br)c(O)c(Br)c1 (stereo not drawn)	6538P	concentration not given, 24 h, 37 °C	10.9 ± 0.2 mm
Cc1ncc([N+](=O)[O-])n1CCOCc1nnc(SCC(=O)c2ccc(F)cc2)o1	DMSO	60 µg/mL, 24 h, 37 °C	15 to 20 mm
CC(=O)[O-].O.O.[O-]c1ccc(Br)cc1C=NCCN1CCOCC1.[Zn+2]		20 µL of 100 µM per disc	19 mm
Cc1cc(O)cc2c1C(=O)c1c(cc3oc(=O)cc(-c4ccccc4)c3c1O)C2=O	MTCC 96	100 µg/disc	8 mm
CCN1CCN(Cn2nc(C34CC5CC(CC(C5)C3)C4)n(-c3ccccc3)c2=S)CC1	IFO 3060	200 µg/disc, 24 h, 37 °C	15 mm
Cc1cc(O)c2c(c1)C(=O)c1cc3oc(=O)cc(-c4ccccc4)c3c(O)c1C2=O	MTCC 96	100 µg/disc	8 mm
CCN(CC)CCSc1nnc(C23CC4CC(CC(C4)C2)C3)n1C	IFO 3060	200 µg/disc, 24 h, 37 °C	14 mm
Cc1ncc([N+](=O)[O-])n1CCOCc1nnc(SCC(=O)c2ccc([N+](=O)[O-])cc2)o1	DMSO	60 µg/mL, 24 h, 37 °C	15 to 20 mm
Clc1ccc(CSc2nnc(C34CC5CC(CC(C5)C3)C4)n2-c2ccccc2)cc1	IFO 3060	200 µg/disc, 24 h, 37 °C	19 mm
CC(=NNC(=N)N)c1nnn(-c2ccc(C#CC3(O)CCCCC3)cc2)c1C	ATCC 43300 MRSA	concentration not given	33.3 ± 0.47 mm
Cc1ncc([N+](=O)[O-])n1CCOCc1nnc(SCC(=O)c2ccc(Cl)cc2)o1	DMSO	60 µg/mL, 24 h, 37 °C	15 to 20 mm
